Published values collected from several papers.
Protocols differ between the studies behind these lines. ± gives the spread as reported.

`CN1CCN(c2ccc3nc(-c4c(N)c5c(F)cccc5[nH]c4=O)[nH]c3c2)CC1` has a Cmax of 0.373 ± 0.0146 µg/mL (NOD/SCID mice, male, blood or plasma; oral, 30 mg/kg once daily, day 1).
The Cmax of `O=C(O[C@@H]1Cc2c(O)cc(O)cc2O[C@@H]1c1cc(O)c(O)c(O)c1)c1cc(O)c(O)c(O)c1` is reported as 224 µM (male CB17 SCID mice, plasma; intravenous, 50 mg/kg, earliest sampling 2 min).
The Cmax of `O=C(c1ccc(OCCN2CCCCC2)cc1)c1c(-c2ccc(O)cc2)sc2cc(O)ccc12` is reported as 0.14 µM (C57BL/6 mice male, plasma; oral, 20 mg/kg, geometric mean).
`CC(=O)C=Cc1ccc(O)c(O)c1` gave a Cmax of 1.29 ± 0.1 µM (obese male C57BL/6J mice, plasma; oral, 200 mg/kg, high-fat diet 8 weeks).
With `CC[C@H](C)[C@@H]1NC(=O)[C@H](Cc2ccc(O)cc2)NC(=O)[C@@H](N)CSSC[C@@H](C(=O)N2CCC[C@H]2C(=O)N[C@@H](CC(C)C)C(=O)NCC(N)=O)NC(=O)[C@H](CC(N)=O)NC(=O)[C@H](CCC(N)=O)NC1=O` the Cmax was 1.25 ± 0.37 pg/sample (microdialysis, radioimmunoassay; C57BL/6J male mice, wild type, amygdala extracellular fluid; intraperitoneal, 12 µg total, i=12).
For `OCCc1ccc(O)cc1`, the Cmax was 15.3 ± 3.5 µM (male C57BL/6J mice low-fat diet, plasma; oral, 200 mg/kg, diet 8 weeks).
`OCCc1ccc(O)cc1` gave a Cmax of 0.134 µg/mL (Balb/c tumour-bearing mice, plasma; oral, 109.2 mg/kg SNZ).
`Cc1cc(Nc2cc3ncccc3c(N[C@@H]3C[C@H]4CC[C@@H](C3)N4CCC#N)n2)n[nH]1` gave a Cmax of 9.17 ± 10.3 µM (male BALB/c mice, colon; oral, 10 mg/kg).
For `CC(O)CCc1ccc(O)cc1` (stereo not shown), the Cmax was 149 ± 15 µM (normal-weight male C57BL/6J mice, low-fat diet, plasma; oral, 200 mg/kg of RK, diet for 8 weeks).
For `Cc1cc(Oc2nccc3occc23)ccc1-c1c(C)c(=O)[nH]c(=O)n1C`, the Cmax was about 100 µM (Swiss albino male mice, brain; intraperitoneal, 50 mg/kg).
The Cmax of `CC(=O)CCc1ccc(O)cc1` is reported as 243 ± 19.6 µM (male C57BL/6J mice, low-fat diet, plasma; oral, 200 mg/kg, after enzymatic deconjugation).
`COc1ccc2c(c1OC)C(=O)O[C@@H]2[C@H]1c2c(cc3c(c2OC)OCO3)CCN1C` has a Cmax of 1.16 ± 0.0189 µg/mL (CD-1 mice, male, plasma; oral gavage, 50 mg/kg).
`C[C@@H]1CCN(C(=O)CC#N)C[C@@H]1N(C)c1ncnc2[nH]ccc12` has a Cmax of 0.62 ± 0.075 µM (male BALB/c mice, plasma; oral, 10 mg/kg).
`O=c1c(O)c(-c2ccc(O)cc2)oc2cc(OS(=O)(=O)O)cc(O)c12` has a Cmax of 0.141 ± 0.101 µM (FVB mice, male, Mdr1a^−/−, plasma; oral, 10 mg/kg of kaempferol).
`COc1ccc(CCC(C)=O)cc1` has a Cmax of 0.055 ± 0.018 µM (male C57BL/6J mice low-fat diet, plasma; oral, 200 mg/kg, diet 8 weeks).
With `Nc1cc(-c2ccccc2)ccc1Cn1cncc1CNc1ccc(-c2nc3ccccc3s2)c(-c2ccccc2)c1` the Cmax was 5.8 µg/mL (female BALB/c mice, plasma; oral, 50 mg/kg single dose).

A few entries again:
With `CC[C@H](C)[C@@H]1NC(=O)[C@H](Cc2ccc(O)cc2)NC(=O)[C@@H](N)CSSC[C@@H](C(=O)N2CCC[C@H]2C(=O)N[C@@H](CC(C)C)C(=O)NCC(N)=O)NC(=O)[C@H](CC(N)=O)NC(=O)[C@H](CCC(N)=O)NC1=O` the Cmax was 1.25 ± 0.37 pg/sample (microdialysis, radioimmunoassay; C57BL/6J male mice, wild type, amygdala extracellular fluid; intraperitoneal, 12 µg total, i=12).
`CN1CCN(c2ccc3nc(-c4c(N)c5c(F)cccc5[nH]c4=O)[nH]c3c2)CC1` has a Cmax of 0.373 ± 0.0146 µg/mL (NOD/SCID mice, male, blood or plasma; oral, 30 mg/kg once daily, day 1).
